Assay results gathered from unrelated publications.

Compound | assay | test system | setting | Cmax
COc1ccc2c(c1)CCn1c[n+]3c(c1-2)-c1ccc(OC)cc1CC3 |  | male C57BL/6 mouse, plasma | intraperitoneal, 10 mg/kg, single dose | 486 ng/mL
CC(C)(C)OC(=O)N[C@H](Cc1ccccc1)[C@@H](O)CN1CCC(N2CCCCC2)CC1 | HPLC | Swiss mouse, plasma | subcutaneous, 20 mg/kg, single dose | 200 ng/mL
O.O=C(O)/C=C\C(=O)O.O=c1[nH]cnc2n[nH]cc12 |  | female BALB/c mouse, plasma | oral, 30 mg/kg | 16000 ng/mL
COc1ccc(C(=O)c2c(C(=O)NCCCN(C)C)oc3ccc(Cl)cc3c2=O)cc1OC |  | male C57BL/6 mouse, brain | intraperitoneal, 5 mg/kg | 123 ng/mL
O=C1CCC(N2C(=O)c3ccc(N4CCC(C(=O)N5CCC(CCN6CCC(CNC(=O)c7cccc(-c8noc(C(F)(F)F)n8)c7)(c7nc(-c8ccccc8)cs7)CC6)CC5)CC4)cc3C2=O)C(=O)N1 (stereo not drawn) |  | CD-1 mouse, plasma | oral, 30 mg/kg | 238 ng/mL
C[C@H]1CN(C(=O)c2cn(-c3ccnc(N)n3)c3cc(C#CC4(O)CCCCC4)ccc23)CCN1 |  | CD-1 mouse, plasma | intravenous, 1 mg/kg | 591 ng/mL
C[N+]1(CC(=O)OC2CCCCCCCCCCC2)CCCCC1 |  | mouse, plasma | intraperitoneal, 2.5 mg/kg, single dose | 229 ng/mL
CN1CCC(N[C@@H]2CCc3[nH]c4c(C(N)=O)ccc(-c5ccccc5Cl)c4c3C2)CC1 |  | mouse, plasma | oral, 10 mg/kg | 98.1 ng/mL
CCc1nc(N)nc(N)c1C#C[C@H](C)c1cc(-c2cc(C)nc(C)c2)ccc1Cl |  | mouse, plasma | intraperitoneal, 5 mg/kg | 4100 ng/mL
O=C(c1ccccc1)N1C(c2ccc(OCC3CCN(CCCF)C3)cc2)c2ccc(O)cc2CC12CC2 (stereo not drawn) |  | C57BL/6 mouse, plasma | intraperitoneal, 25 mg/kg | 5050 ng/mL
Brc1ccccc1-c1nnc(CSc2nnnn2-c2ccccc2)o1 |  | male C57BL/6 mouse, plasma | intraperitoneal, 10 mg/kg | 2630 nM
Nc1ccn(C[C@@H](CO)OCP(=O)(O)OCCCS(=O)(=O)CCCCCCCCCCCCCC2CCC2)c(=O)n1 |  | mouse, plasma | intravenous, 3 mg/kg, single dose | 2620 ng/mL
NC(=O)c1c(F)ccc(OCc2nc3cc(Cl)cnc3s2)c1F |  | mouse, plasma | oral, 3 mg/kg | 700 ng/mL
Cc1cc(NCCOC(C)C)c2nc(N3CCOC[C@H]3C)cc(=O)n2c1 |  | C57BL/6 mouse, plasma | intraperitoneal, 10 mg/kg, single dose | 14300 ng/mL
Cc1cccc(O[C@H]2CCC[C@@H](C(C)CNCc3ccncc3)C2)c1 (relative stereo) |  | female C57BL/6 mouse, plasma | oral, 25 mg/kg | 1820 ng/mL
O=C(Nc1ccc(C(F)(F)F)nc1)N1CCC(Cc2cccc(Oc3ccc(C(F)(F)F)cn3)c2)CC1 |  | male Swiss mouse, blood | oral, 1 mg/kg | 140 nM
O=C(OCc1cccc(O)c1O)c1ccc(O)c(CO)c1 |  | male CD-1 mouse, plasma | intravenous, 10 mg/kg | 27300 ng/mL
CC(C)(C)NCC(SS(=O)(=O)O)c1ccccc1 (stereo not drawn) |  | female Swiss mouse, plasma | oral, 100 mg/kg | 710 ng/mL

Repeated from above:
Compound | assay | test system | setting | Cmax
Cc1cc(NCCOC(C)C)c2nc(N3CCOC[C@H]3C)cc(=O)n2c1 |  | C57BL/6 mouse, plasma | intraperitoneal, 10 mg/kg, single dose | 14300 ng/mL
O=C1CCC(N2C(=O)c3ccc(N4CCC(C(=O)N5CCC(CCN6CCC(CNC(=O)c7cccc(-c8noc(C(F)(F)F)n8)c7)(c7nc(-c8ccccc8)cs7)CC6)CC5)CC4)cc3C2=O)C(=O)N1 (stereo not drawn) |  | CD-1 mouse, plasma | oral, 30 mg/kg | 238 ng/mL
